Published values from different studies.
Compare with care: the assays were run in different laboratories. Numbers after ± are the reported error.
rep papain-like protease: Replicase polyprotein 1ab, papain-like protease (rep, Severe acute respiratory syndrome coronavirus 2, UniProt P0DTD1)
rep nsp12 RdRp: Replicase polyprotein 1ab, nsp12 RdRp (rep, Severe acute respiratory syndrome coronavirus 2, UniProt P0DTD1)
Sequence of UniProt P35372 (whole entry, looked up): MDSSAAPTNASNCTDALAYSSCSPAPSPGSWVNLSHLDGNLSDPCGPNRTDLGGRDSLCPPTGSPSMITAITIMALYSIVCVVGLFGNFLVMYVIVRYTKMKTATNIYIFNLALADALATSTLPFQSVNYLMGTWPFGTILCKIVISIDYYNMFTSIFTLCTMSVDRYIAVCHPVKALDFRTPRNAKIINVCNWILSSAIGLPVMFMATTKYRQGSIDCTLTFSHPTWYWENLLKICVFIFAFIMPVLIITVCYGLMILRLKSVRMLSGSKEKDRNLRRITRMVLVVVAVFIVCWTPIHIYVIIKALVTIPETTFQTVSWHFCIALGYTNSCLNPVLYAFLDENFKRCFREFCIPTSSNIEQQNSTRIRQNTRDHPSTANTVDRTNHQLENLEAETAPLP
Sequence of UniProt P41143 (whole entry, looked up): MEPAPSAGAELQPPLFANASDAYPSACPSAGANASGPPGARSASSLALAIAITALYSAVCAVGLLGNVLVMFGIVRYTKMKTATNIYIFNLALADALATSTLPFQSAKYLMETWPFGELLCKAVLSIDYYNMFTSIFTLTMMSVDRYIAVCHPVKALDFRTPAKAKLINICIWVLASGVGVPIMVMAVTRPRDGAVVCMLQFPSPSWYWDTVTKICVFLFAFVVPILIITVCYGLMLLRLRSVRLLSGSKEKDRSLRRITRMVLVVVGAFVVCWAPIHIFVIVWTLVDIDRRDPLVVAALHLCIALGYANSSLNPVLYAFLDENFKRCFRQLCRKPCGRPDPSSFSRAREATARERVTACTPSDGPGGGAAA

CCn1ccc(-c2cc(-c3cnn(CCOC)c3)cc([C@@H](C)NC(=O)c3cc(OCCN(C)C)ccc3C)c2)n1
EC50 (rep papain-like protease; protease activity, inhibitor, FlipGFP; SARS-CoV-2): 2 ± 0.3 µM

Cc1ccc(OCCN(C)C)cc1C(=O)N[C@H](C)c1cc(-c2cnn(CC(=O)N(C)C)c2)nc2ccccc12
EC50 (rep papain-like protease; viral replication): 32 µM

CCOc1cccc(NC(=O)CSc2cn(C(=O)OC(C)(C)C)c3ccccc23)c1
EC50 (rep nsp12 RdRp; SARS-CoV-2 RdRp (nsp12/7/8) activity, inhibitor; HEK293T; 24 h): 1.41 µM

Cc1ccc(N)cc1CN(C)[C@H](C)c1cccc2ccccc12
EC50 (rep papain-like protease; enzyme activity in cells, inhibitor): < 10 µM

Cc1ccc(OCCN(C)C)cc1C(=O)N[C@H](C)c1cc(-c2cnn(C)c2)cc(-c2cnn(C(F)F)c2)c1
EC50 (rep papain-like protease; protease activity, inhibitor, FlipGFP; SARS-CoV-2): 2.1 ± 0.2 µM

Cc1cc(O)ccc1CN(C)[C@H](C)c1cccc2ccccc12
EC50 (rep papain-like protease; enzyme activity in cells, inhibitor): 55.1 µM

CC(C)C[C@H](NC(=O)[C@H](CO)NC(=O)[C@H](CCCCN)NC(=O)[C@H](CC(C)C)NC(=O)CNC(=O)[C@H](CCCCN)NC(=O)[C@H](CCC(=O)O)NC(=O)[C@H](C)NC(=O)[C@H](CC(C)C)NC(=O)[C@H](CC(N)=O)NC(=O)[C@@H]1CCCN1C(=O)[C@H](CC(C)C)NC(=O)[C@H](Cc1ccccc1)NC(=O)CNC(=O)[C@H](NC(=O)[C@@H](N)Cc1ccc(O)cc1)[C@H](C)O)C(N)=O
Ki (OPRD1 (Homo sapiens, UniProt P41143); ligand displacement, radioligand; pH 7.5, cell membranes): 0.015 µM

O=C(CSc1c[nH]c2ccccc12)NCc1ccc(Cl)c(Cl)c1
EC50 (rep nsp12 RdRp; SARS-CoV-2 RdRp (nsp12/7/8) activity, inhibitor; HEK293T; 24 h): 2.75 µM

Cc1ccc(O)cc1CN(C)[C@H](C)c1cccc2ccccc12
EC50 (rep papain-like protease; enzyme activity in cells, inhibitor): < 10 µM

Cc1cccc(NC(=O)CSc2c[nH]c3ccccc23)c1
EC50 (Replicase polyprotein 1ab, nsp12 with nsp14/nsp10 (rep, Severe acute respiratory syndrome coronavirus 2, UniProt P0DTD1); RdRp reporter activity, inhibitor, Gaussia luciferase reporter; HEK293T; 24 h, with: nsp7, nsp8, nsp10, nsp14): 2.56 µM

Cc1ccc(OCCN(C)C)cc1C(=O)N[C@H](C)c1cc(-c2cnn(C)c2)cc(-c2cnn(C)c2)c1
EC50 (rep papain-like protease; protease activity, inhibitor, FlipGFP; SARS-CoV-2): 1.8 ± 0.2 µM

CC(C)C[C@H](NC(=O)[C@H](CO[C@@H]1O[C@H](CO)[C@@H](O[C@@H]2O[C@H](CO)[C@H](O)[C@H](O)[C@H]2O)[C@H](O)[C@H]1O)NC(=O)[C@H](CCCCN)NC(=O)[C@H](CC(C)C)NC(=O)C(C)(C)NC(=O)[C@H](CCCCN)NC(=O)[C@H](CCC(=O)O)NC(=O)[C@H](C)NC(=O)[C@H](CC(C)C)NC(=O)[C@H](CC(N)=O)NC(=O)[C@@H]1CCCN1C(=O)[C@H](CC(C)C)NC(=O)[C@H](Cc1ccccc1)NC(=O)CNC(=O)[C@H](NC(=O)[C@@H](N)Cc1ccc(O)cc1)[C@H](C)O)C(N)=O
Ki (OPRM1 (Homo sapiens, UniProt P35372); radioligand displacement; CHO membranes; 60 min, pH 7.5, 25 °C, with: 0.25 nM [3H]DAMGO): 0.0082 ± 0.0006 µM

COc1ccc(O)c(C=NN2C(=O)c3ccccc3NC2c2cc(OC)ccc2O)c1 (centres unmarked)
EC50 (Replicase polyprotein 1ab, main protease (rep, Severe acute respiratory syndrome coronavirus 2, UniProt P0DTD1); viral replication, GFP reporter; HEK293T, SARS-CoV-2; 48 h): ~6.5 µM

CCCCCCCCCCCCCCCC(=O)N[C@@H](CCC(=O)NCCOCCOCCC(=O)NCCOCCOCCC(=O)NCCCC[C@H](NC(=O)[C@H](CC(=O)O)NC(=O)[C@H](CC(C)C)NC(=O)[C@H](Cc1ccc(O)cc1)NC(=O)[C@H](CCCCN)NC(=O)[C@H](CO)NC(=O)[C@H](Cc1ccc(O)cc1)NC(=O)[C@H](CC(=O)O)NC(=O)[C@H](CO)NC(=O)[C@@H](NC(=O)[C@H](Cc1ccccc1)NC(=O)[C@@H](NC(=O)CNC(=O)[C@H](CCC(N)=O)NC(=O)[C@@H](CO)NC(=O)[C@@H](N)Cc1c[nH]cn1)[C@@H](C)O)[C@@H](C)O)C(=O)N[C@@H](CCCNC(=N)N)C(=O)N[C@@H](CCCNC(=N)N)C(=O)N[C@@H](C)C(=O)N[C@@H](CCC(N)=O)C(=O)N[C@@H](CC(=O)O)C(=O)N[C@@H](Cc1ccccc1)C(=O)N[C@H](C(=O)N[C@@H](CCC(N)=O)C(=O)N[C@@H](Cc1c[nH]c2ccccc12)C(=O)N[C@@H](CC(C)C)C(=O)N[C@@H](CC(C)C)C(=O)N[C@@H](CC(N)=O)C(=O)N[C@H](C(=O)NCC(=O)NCC(=O)N1CCC[C@H]1C(=O)N[C@@H](CO)C(=O)N[C@@H](CO)C(=O)NCC(=O)N[C@@H](C)C(=O)N1CCC[C@H]1C(=O)N1CCC[C@H]1C(=O)N1CCC[C@H]1C(=O)N[C@@H](CO)C(N)=O)[C@@H](C)O)C(C)C)C(=O)O
Tmax (rhesus monkey; subcutaneous, 5 µg/kg, single dose): 1.67 ± 0.516 h

Some of these lines once more:
Cc1cccc(NC(=O)CSc2c[nH]c3ccccc23)c1
EC50 (Replicase polyprotein 1ab, nsp12 with nsp14/nsp10 (rep, Severe acute respiratory syndrome coronavirus 2, UniProt P0DTD1); RdRp reporter activity, inhibitor, Gaussia luciferase reporter; HEK293T; 24 h, with: nsp7, nsp8, nsp10, nsp14): 2.56 µM

Cc1ccc(OCCN(C)C)cc1C(=O)N[C@H](C)c1cc(-c2cnn(C)c2)cc(-c2cnn(C)c2)c1
EC50 (rep papain-like protease; protease activity, inhibitor, FlipGFP; SARS-CoV-2): 1.8 ± 0.2 µM
